Experimental data pooled from the literature.
Observed: metabolic stability

COc1cc(-c2nc3ccc(C(=O)NCCCN4CCN(c5ccccc5)C(=O)C4)cc3n2C2CCC2)cc(OC)c1OC  half-life (mouse, liver microsomes): 6.1 min
CC(C)(F)CCN(Cc1ccc(F)cc1)c1nc(C#N)nc(N2CCOCC2)n1  half-life (mouse, liver microsomes): 3.5 min
O=C(Nc1ccc(OCCN2CCCC2)cc1)c1cc2ccc(Cl)cc2s1  half-life (female mouse, liver microsomes): > 40 min
C#Cc1cccc(Nc2ncnc3cc(OC)c(OCCCN4CCOCC4)cc23)c1  half-life (mouse, liver microsomes; 1 µM, pH 7.4): 7.01 min
CO[C@@H](C(N)=O)[C@H](NC(=O)c1ccc(NC(=O)c2ccc([N+](=O)[O-])cc2)cc1)C(=O)Nc1ccc(C(=O)Nc2ccc(C(=O)Nc3ccc(C(=O)O)cc3)c(O)c2OC(C)C)cc1  half-life (mouse, hepatocytes): 117 min
CC(C)n1ncc2c(C(=O)NCCN(C)C)cc(C3CC3)nc21  half-life (mouse, liver microsomes): 21.3 min
CNC(=O)C1CCN(c2ccccc2NC(=O)c2ccc(-c3c(C)ccc4[nH]ncc34)c(C)c2)CC1  half-life (mouse, liver microsomes; 2 µM): < 10 min
O=C(Nc1ccc(-c2noc(C3CC3)n2)c(Cl)c1)c1cccs1  half-life (mouse, liver microsomes): 16.3 min
Cc1nc(N[C@@H](C)c2ccc(-c3nc(C4CC4)no3)cc2)c2cc(C)oc2n1  half-life (mouse, liver microsomes): 11 min
CC(C)CCN(Cc1ccc(F)cc1)c1nc(C#N)nc(N2CCOCC2)n1  half-life (mouse, liver microsomes): 7 min
CCC(CC)CNC(=N)NC(=N)NCCCCCCNC(=N)NC(=N)NCC(CC)CC  half-life (mouse, liver microsomes; 2 µM): 64.6 min
CNC(=O)c1cc(C)ccc1NC(=O)c1ccc(-c2cc(O)ccc2C)c(C)c1  half-life (mouse, liver microsomes; 2 µM): > 25 min
N#Cc1nc(N2CCOCC2)nc(N(Cc2ccc(F)cc2)CC2CCCNC2)n1 (centres unmarked)  half-life (mouse, liver microsomes): > 60 min
Oc1cc2nc(c1)CNCc1cc(O)cc(n1)CNC2  half-life (mouse, hepatocytes): > 240 min
COc1cc(F)cc(-c2nc3ccc(C(=O)NCCCN(C)C)cc3n2C2CCC2)c1  half-life (mouse, liver microsomes): 78.5 min
CCN(c1nc(N[C@H](CC(N)=O)C(=O)NC)nc(N2CCN(c3ccccc3C#N)CC2)n1)C1CCCCC1  half-life (mouse, liver microsomes): 114 min
CNC(=O)C1CCN(c2cc(C)c(F)cc2NC(=O)c2ccc(-c3cc(O)ccc3C)c(C)c2)CC1  half-life (mouse, liver microsomes; 2 µM): > 25 min
COc1cc(-c2nc3ccc(C(=O)NCCCN4CCN(C5CCCCC5)CC4)cc3n2C2CCC2)cc(OC)c1OC  half-life (mouse, liver microsomes): 10 min
CN(C)C(=O)c1ccnc(N2Cc3cn(Cc4ccc(F)cc4)nc3C2)n1  half-life (mouse, liver microsomes): 105 min
O=C(CCN1C(=O)CSc2ccccc21)Nc1nnc(-c2ccccn2)[nH]1  half-life (mouse, liver microsomes): 50.4 min
